Results of several laboratories.
Each line is one published result; not all experiments were run side by side. Several values in a cell are separate wells, animals, samples, runs or records. Numbers after ± are the reported error.
Cell line: HeLa

Cc1c(COc2cc(OCc3cccc(C#N)c3)c(CNC(C)(CO)CO)cc2Cl)cccc1-c1cccc(OCCCCCCC(=O)NO)c1
IC50 (cell growth or viability, CCK-8; 48 h): > 20 µM

Cc1ccnc(-c2cc(C)ccn2)c1
IC50 (cell growth or viability, MTT; 48 h): > 50 µM

CCCC[N+]1=c2cc3c4cc2[O][Mn-2]1(=[C]=O)(=[C]=O)(=[C]=O)[n+]1ccc(cc1)C(=O)OCCOCCOC(=O)c1cc[n+](cc1)[Mn-2](=[C]=O)(=[C]=O)(=[C]=O)([O]3)[N+]=4CCCC
IC50 (cell growth, MTT; 48 h, LED photolysed 1 h): 1.74 ± 0.15 µM

Nc1ncn([C@@H]2O[C@H](CO)[C@@H](O)[C@H]2O)c(=O)n1
IC50 (cell growth or viability): 4.91 µM

CCC(=CCc1c(O)cc2c(c1O)C(=O)CC(c1cccc(O)c1OC)O2)CC (stereo not drawn)
IC50 (cell growth or viability, MTT; 48 h): 26.9 µM

CCOC(=O)/C=C1\S/C(=N\N=C\c2cccc3cc4ccccc4nc23)N(c2ccc(F)cc2)C1=O
IC50 (cell growth or viability, MTT; 48 h): 15.9 µM

Cc1c(COc2cc(OCc3cccc(C#N)c3)c(CNCCO)cc2Cl)cccc1-c1cccc(OCCCCCCC(=O)NO)c1
IC50 (cell growth or viability, CCK-8; 48 h): 12.8 µM

CN1C(=O)CS/C1=N\N=C\c1cccc2cc3ccccc3nc12
IC50 (cell growth or viability, MTT; 48 h): 12.3 µM

O=[C]=[Mn-2]12(=[C]=O)(=[C]=O)[O]c3cc4c(cc3=[N+]1CCc1ccccc1)[O][Mn-2](=[C]=O)(=[C]=O)(=[C]=O)([N+]=4CCc1ccccc1)[n+]1ccc(cc1)C(=O)Nc1ccccc1NC(=O)c1cc[n+]2cc1
IC50 (cell growth, MTT; 48 h, LED photolysed 1 h): 2.51 ± 0.36 µM

Nc1nc(=O)n(C2CC(O)C(CO)O2)cc1F (stereo not drawn)
IC50 (cell growth or viability): > 10 µM

CCC(=CCc1c(O)cc2c(c1O)C(=O)CC(c1cc(O)ccc1OC)O2)CC (stereo not drawn)
IC50 (cell growth or viability, MTT; 48 h): 29.6 µM

Cc1ccc2c(Br)cc(Br)c([O-])c2n1.Cc1ccc2c(Br)cc(Br)c([O-])c2n1.[Co+2].c1ccc(-c2ccccn2)nc1
IC50 (cell growth or viability, MTT; 48 h): 7.21 µM

CN(C)C(=S)NN=C(c1ccccn1)c1ccccn1
IC50 (cell growth or viability, MTT; 48 h): 2.23 µM

CCC(=CCc1c(O)cc2c(c1O)C(=O)CC(c1cccc(O)c1)O2)CC (stereo not drawn)
IC50 (cell growth or viability, MTT; 48 h): 29.2 µM

COc1cccc(CNC[C@](O)(COCc2ccccc2)[C@@H]2CC[C@@H](C)C[C@H]2OCc2ccccc2)c1
IC50 (cell growth or viability, MTT; 72 h): 1.57 µM

CCOC(=O)/C=C1\S/C(=N\N=C\c2cccc3cc4ccccc4nc23)N(c2cccc(OC)c2)C1=O
IC50 (cell growth or viability, MTT; 48 h): 16.1 µM

NCCOc1cc(NC(=O)c2cc(OCc3cn([C@H]4O[C@@H](CO)[C@H](O)[C@@H](O)[C@@H]4O)nn3)cc(C(=O)Nc3cc(OCCN)c4ccccc4n3)n2)nc2ccccc12
IC50 (cell growth or viability, ATP luminescence; 72 h): > 40 µM

COc1ccccc1CNC[C@@](O)(COCc1ccccc1)[C@@H]1CC[C@@H](C)C[C@H]1OCc1ccccc1
IC50 (cell growth or viability, MTT; 72 h): 2.63 µM

Cc1ccc2c(Cl)cc(Cl)c([O-])c2n1.Cc1ccc2c(Cl)cc(Cl)c([O-])c2n1.Clc1ccnc2c1ccc1c(Cl)ccnc12.[Co+2]
IC50 (cell growth or viability, MTT; 48 h): 1.09 µM

C[C@@H]1CC[C@@H]([C@@](O)(CNCc2ccc(F)cc2)COCc2ccc(F)cc2)[C@H](OCc2ccc(F)cc2)C1
IC50 (cell growth or viability, MTT; 72 h): 2.72 µM

C[n+]1c(/C=C/c2ccc(N(c3ccccc3)c3ccccc3)cc2)cc(/C=C2\Sc3ccccc3N2CCCN2CCCC2)c2ccccc21
IC50 (cell growth or viability, MTT; 36 h): 6.24 µM

NC(=O)c1ccc(-c2ccccc2Cl)c2c3c([nH]c12)CCC(N)C3 (stereo not drawn)
IC50 (cell growth or viability): 0.02 µM

CN(C)CCOc1cc(NC(=O)c2cccc(C(=O)Nc3cc(OCCN(C)C)c4ccccc4n3)n2)nc2ccccc12
IC50 (cell growth or viability, ATP luminescence; 72 h): 2.2 µM

C[C@H]1c2cccc(O)c2C(O)=C2C(=O)[C@]3(O)C(O)=C(C(N)=O)C(=O)[C@@H](N(C)C)[C@@H]3[C@@H](O)[C@@H]21
IC50 (cell growth or viability): > 10 µM

CNC(=O)C1CCCN(C(=O)C2CC3CCC2N3C(=O)[C@@H]2C[C@@H](O)CN2C(=O)NCc2cccc(Cl)c2F)C1 (mixture of isomers)
IC50 (cell growth or viability, CCK-8; 72 h): 0.45 µM

COC(=O)[C@@H](NC(=O)[C@@H](NC(=O)OC(C)(C)C)C(C)C)C(C)C
IC50 (cell growth or viability, SRB): 3.42 µM and 7.99 µM and 6.13 µM

Cc1cc(C(=O)N2CCNCCNCCNCC2)c(O)c(C(=O)N2CCNCCNCCNCC2)c1
IC50 (cell growth or viability, MTT; 24 h): > 10000 µM

c1ccc(-c2ccnc3c2ccc2c(-c4ccccc4)ccnc23)cc1
IC50 (cell growth or viability, MTT; 48 h): > 50 µM

NC(=O)c1cc2c3ccccc3ccn2c1-c1ccccc1
IC50 (microtubule binding, PB-GABA-Taxol competition): < 1 µM

c1ccc2nc3c4cccnc4c4ncccc4c3nc2c1
IC50 (cell growth or viability, MTT; 48 h): > 50 µM

CC(CCC(=O)[O][Pt]([NH2])([NH2])([OH])([Cl])[Cl])C1CCC2C3CCC4CC(O)CCC4(C)C3CCC12C (stereo not drawn)
IC50 (cell growth or viability, MTT; 72 h): 7.3 µM

O=C(NCCOCCOCCNC(=O)c1cc2ccccc2c2ccccc12)c1cc(C(=O)N2CCNCCNCCNCC2)c(O)c(C(=O)N2CCNCCNCCNCC2)c1
IC50 (cell growth or viability, MTT; 24 h): > 1000 µM

CCOC(=O)/C=C1\S/C(=N\N=C\c2cccc3cc4ccccc4nc23)N(c2ccccc2)C1=O
IC50 (cell growth or viability, MTT; 48 h): 31.9 µM

CCC(=CCc1c(O)cc2c(c1O)C(=O)CC(c1cc(OC)ccc1O)O2)CC (stereo not drawn)
IC50 (cell growth or viability, MTT; 48 h): > 100 µM

Cc1c(COc2cc(OCc3cccc(C#N)c3)c(CNC(C)(CO)CO)cc2Cl)cccc1-c1cccc(OCCCCCC(=O)NO)c1
IC50 (cell growth or viability, CCK-8; 48 h): 3.5 µM

C[C@@H]1CC[C@@H]([C@](O)(COCc2ccccc2)Cn2cnc3ccccc32)[C@H](OCc2ccccc2)C1
IC50 (cell growth or viability, MTT; 72 h): 3.98 µM

O=C1CS/C(=N\N=C\c2cccc3cc4ccccc4nc23)N1c1ccc(F)cc1
IC50 (cell growth or viability, MTT; 48 h): 11.9 µM

NCC1OC(OC2C(N)CC(N)C(OC3OC(CO)C(O)C(N)C3O)C2O)C(N)C(O)C1O (stereo not drawn)
IC50 (cell growth or viability): > 10 µM

COc1ccc(CNC[C@@](O)(COCc2ccc(OC)cc2)[C@@H]2CC[C@@H](C)C[C@H]2OCc2ccc(OC)cc2)cc1
IC50 (cell growth or viability, MTT; 72 h): 3.52 µM

Clc1ccnc2c1ccc1c(Cl)ccnc12.[Co+2].[O-]c1c(Br)cc(Br)c2cccnc12.[O-]c1c(Br)cc(Br)c2cccnc12
IC50 (cell growth or viability, MTT; 48 h): 9.22 µM

COc1ccc(CNC[C@@](O)(COCc2ccc(F)cc2)[C@@H]2CC[C@@H](C)C[C@H]2OCc2ccc(F)cc2)cc1
IC50 (cell growth or viability, MTT; 72 h): 1.58 µM

Cc1sc2c(c1C)C(c1ccc(Cl)cc1)=N[C@@H](CC(=O)NCCN(C)CCCCNC(=O)CCCCOc1cccc3c1C(=O)N([C@H]1CCC(=O)NC1=O)C3=O)c1nnc(C)n1-2
IC50 (cell growth or viability, CCK-8; 72 h): > 10 µM

Repeated from above:
O=[C]=[Mn-2]12(=[C]=O)(=[C]=O)[O]c3cc4c(cc3=[N+]1CCc1ccccc1)[O][Mn-2](=[C]=O)(=[C]=O)(=[C]=O)([N+]=4CCc1ccccc1)[n+]1ccc(cc1)C(=O)Nc1ccccc1NC(=O)c1cc[n+]2cc1
IC50 (cell growth, MTT; 48 h, LED photolysed 1 h): 2.51 ± 0.36 µM

CCC(=CCc1c(O)cc2c(c1O)C(=O)CC(c1cc(OC)ccc1O)O2)CC (stereo not drawn)
IC50 (cell growth or viability, MTT; 48 h): > 100 µM

CN(C)C(=S)NN=C(c1ccccn1)c1ccccn1
IC50 (cell growth or viability, MTT; 48 h): 2.23 µM

CCOC(=O)/C=C1\S/C(=N\N=C\c2cccc3cc4ccccc4nc23)N(c2ccc(F)cc2)C1=O
IC50 (cell growth or viability, MTT; 48 h): 15.9 µM

Cc1c(COc2cc(OCc3cccc(C#N)c3)c(CNC(C)(CO)CO)cc2Cl)cccc1-c1cccc(OCCCCCCC(=O)NO)c1
IC50 (cell growth or viability, CCK-8; 48 h): > 20 µM
